Results pooled from the literature.
Each line is one published result; not all experiments were run side by side. “And” joins repeats or separate records; there may be more than shown. ± marks the error that the study gave.
ULK1: Serine/threonine-protein kinase ULK1 (ULK1, Homo sapiens, UniProt O75385)
Chain of UniProt Q00987 (whole entry, looked up): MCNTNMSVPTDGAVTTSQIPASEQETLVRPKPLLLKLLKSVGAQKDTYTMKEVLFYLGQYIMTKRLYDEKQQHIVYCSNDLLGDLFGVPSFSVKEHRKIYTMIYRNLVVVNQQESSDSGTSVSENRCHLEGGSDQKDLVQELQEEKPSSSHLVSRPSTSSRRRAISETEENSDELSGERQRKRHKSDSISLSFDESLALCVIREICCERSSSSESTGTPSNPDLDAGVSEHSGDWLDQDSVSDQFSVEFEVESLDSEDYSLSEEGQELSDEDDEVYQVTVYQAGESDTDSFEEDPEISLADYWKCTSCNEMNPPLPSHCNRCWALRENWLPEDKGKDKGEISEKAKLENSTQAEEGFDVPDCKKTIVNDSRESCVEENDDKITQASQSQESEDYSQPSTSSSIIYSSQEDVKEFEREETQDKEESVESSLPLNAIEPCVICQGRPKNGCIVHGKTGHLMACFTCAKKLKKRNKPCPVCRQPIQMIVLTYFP
Chain of UniProt Q61205 (whole entry, looked up): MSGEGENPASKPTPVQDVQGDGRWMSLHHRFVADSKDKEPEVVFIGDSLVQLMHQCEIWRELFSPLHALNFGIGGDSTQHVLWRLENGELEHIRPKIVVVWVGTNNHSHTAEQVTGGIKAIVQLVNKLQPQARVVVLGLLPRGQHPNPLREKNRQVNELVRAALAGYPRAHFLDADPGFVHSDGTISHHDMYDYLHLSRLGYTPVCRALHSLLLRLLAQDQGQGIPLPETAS
Chain of UniProt A5GZW8 (whole entry, looked up): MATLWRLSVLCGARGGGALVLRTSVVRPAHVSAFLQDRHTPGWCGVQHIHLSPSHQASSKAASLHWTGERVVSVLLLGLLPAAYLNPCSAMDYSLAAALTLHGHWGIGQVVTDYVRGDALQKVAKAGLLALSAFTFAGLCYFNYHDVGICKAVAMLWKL
Chain of UniProt D0VWV4 (whole entry, looked up): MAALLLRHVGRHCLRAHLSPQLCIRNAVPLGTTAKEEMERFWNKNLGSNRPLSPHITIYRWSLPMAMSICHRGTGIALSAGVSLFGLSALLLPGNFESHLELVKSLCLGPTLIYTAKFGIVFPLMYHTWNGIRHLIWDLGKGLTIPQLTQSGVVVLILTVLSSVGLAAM
Chain of UniProt Q007T0 (whole entry, looked up): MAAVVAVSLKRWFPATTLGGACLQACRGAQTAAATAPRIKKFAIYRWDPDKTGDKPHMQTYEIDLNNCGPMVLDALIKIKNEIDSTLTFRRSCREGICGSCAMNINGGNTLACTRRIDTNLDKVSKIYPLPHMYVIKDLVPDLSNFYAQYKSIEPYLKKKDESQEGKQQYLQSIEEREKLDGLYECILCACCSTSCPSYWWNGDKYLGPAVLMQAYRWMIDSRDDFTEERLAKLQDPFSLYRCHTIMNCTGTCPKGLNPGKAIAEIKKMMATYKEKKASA
Chain of UniProt O75385 (whole entry, looked up): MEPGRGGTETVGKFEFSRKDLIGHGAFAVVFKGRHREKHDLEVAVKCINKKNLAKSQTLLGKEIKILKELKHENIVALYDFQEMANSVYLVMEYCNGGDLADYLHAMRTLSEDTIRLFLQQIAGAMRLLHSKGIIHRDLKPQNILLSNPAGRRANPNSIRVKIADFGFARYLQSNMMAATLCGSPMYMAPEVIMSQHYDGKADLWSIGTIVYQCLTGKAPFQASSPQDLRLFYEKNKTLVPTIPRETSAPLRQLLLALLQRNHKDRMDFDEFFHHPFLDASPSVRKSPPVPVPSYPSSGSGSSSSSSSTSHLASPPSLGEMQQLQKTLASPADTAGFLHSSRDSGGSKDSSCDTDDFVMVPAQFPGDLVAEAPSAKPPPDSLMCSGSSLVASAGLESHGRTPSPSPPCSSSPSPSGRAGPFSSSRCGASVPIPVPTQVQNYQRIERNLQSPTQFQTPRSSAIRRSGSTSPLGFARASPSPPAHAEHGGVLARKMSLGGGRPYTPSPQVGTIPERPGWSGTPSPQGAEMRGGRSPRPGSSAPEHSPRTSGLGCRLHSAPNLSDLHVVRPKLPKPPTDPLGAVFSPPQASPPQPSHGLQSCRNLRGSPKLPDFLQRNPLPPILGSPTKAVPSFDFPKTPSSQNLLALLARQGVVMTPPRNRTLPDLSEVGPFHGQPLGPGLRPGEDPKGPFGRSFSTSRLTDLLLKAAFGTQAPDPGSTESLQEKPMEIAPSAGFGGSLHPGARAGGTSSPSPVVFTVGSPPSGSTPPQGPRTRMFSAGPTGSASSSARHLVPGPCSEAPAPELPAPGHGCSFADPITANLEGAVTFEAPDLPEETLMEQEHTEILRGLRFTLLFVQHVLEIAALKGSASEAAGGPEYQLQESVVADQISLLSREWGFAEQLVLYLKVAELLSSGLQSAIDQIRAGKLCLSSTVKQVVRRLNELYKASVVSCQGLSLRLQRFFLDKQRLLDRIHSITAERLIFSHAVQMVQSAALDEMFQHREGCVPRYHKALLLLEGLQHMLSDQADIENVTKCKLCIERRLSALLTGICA
Chain of UniProt Q9Y2J8 (whole entry, looked up): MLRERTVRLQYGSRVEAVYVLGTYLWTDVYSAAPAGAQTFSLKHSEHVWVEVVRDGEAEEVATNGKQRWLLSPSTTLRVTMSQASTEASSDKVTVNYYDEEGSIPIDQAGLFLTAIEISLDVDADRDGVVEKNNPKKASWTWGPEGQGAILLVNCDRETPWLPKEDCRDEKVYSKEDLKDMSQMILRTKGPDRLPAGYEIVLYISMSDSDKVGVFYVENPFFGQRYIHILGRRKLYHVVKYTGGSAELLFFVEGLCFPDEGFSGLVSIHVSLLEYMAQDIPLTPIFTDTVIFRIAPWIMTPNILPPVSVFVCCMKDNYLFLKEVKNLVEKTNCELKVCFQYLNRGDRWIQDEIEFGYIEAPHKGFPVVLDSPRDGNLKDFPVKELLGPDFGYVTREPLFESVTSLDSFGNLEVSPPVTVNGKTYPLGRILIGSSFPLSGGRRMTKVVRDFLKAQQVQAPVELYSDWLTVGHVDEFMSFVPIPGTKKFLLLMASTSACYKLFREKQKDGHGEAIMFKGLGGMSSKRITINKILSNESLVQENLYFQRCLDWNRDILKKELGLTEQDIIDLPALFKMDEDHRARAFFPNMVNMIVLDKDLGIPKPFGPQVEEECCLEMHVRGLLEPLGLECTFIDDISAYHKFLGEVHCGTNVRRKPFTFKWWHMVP
Chain of UniProt Q6DWJ6 (whole entry, looked up): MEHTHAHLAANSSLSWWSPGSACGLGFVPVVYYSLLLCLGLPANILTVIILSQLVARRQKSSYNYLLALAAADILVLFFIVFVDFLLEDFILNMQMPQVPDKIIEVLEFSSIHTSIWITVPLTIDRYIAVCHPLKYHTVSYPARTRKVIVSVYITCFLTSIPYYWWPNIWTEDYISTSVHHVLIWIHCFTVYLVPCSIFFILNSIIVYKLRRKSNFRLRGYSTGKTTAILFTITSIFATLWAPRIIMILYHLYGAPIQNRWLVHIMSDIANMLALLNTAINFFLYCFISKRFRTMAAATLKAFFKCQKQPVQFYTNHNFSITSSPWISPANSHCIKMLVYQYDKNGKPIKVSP
Chain of UniProt P41594 (whole entry, looked up): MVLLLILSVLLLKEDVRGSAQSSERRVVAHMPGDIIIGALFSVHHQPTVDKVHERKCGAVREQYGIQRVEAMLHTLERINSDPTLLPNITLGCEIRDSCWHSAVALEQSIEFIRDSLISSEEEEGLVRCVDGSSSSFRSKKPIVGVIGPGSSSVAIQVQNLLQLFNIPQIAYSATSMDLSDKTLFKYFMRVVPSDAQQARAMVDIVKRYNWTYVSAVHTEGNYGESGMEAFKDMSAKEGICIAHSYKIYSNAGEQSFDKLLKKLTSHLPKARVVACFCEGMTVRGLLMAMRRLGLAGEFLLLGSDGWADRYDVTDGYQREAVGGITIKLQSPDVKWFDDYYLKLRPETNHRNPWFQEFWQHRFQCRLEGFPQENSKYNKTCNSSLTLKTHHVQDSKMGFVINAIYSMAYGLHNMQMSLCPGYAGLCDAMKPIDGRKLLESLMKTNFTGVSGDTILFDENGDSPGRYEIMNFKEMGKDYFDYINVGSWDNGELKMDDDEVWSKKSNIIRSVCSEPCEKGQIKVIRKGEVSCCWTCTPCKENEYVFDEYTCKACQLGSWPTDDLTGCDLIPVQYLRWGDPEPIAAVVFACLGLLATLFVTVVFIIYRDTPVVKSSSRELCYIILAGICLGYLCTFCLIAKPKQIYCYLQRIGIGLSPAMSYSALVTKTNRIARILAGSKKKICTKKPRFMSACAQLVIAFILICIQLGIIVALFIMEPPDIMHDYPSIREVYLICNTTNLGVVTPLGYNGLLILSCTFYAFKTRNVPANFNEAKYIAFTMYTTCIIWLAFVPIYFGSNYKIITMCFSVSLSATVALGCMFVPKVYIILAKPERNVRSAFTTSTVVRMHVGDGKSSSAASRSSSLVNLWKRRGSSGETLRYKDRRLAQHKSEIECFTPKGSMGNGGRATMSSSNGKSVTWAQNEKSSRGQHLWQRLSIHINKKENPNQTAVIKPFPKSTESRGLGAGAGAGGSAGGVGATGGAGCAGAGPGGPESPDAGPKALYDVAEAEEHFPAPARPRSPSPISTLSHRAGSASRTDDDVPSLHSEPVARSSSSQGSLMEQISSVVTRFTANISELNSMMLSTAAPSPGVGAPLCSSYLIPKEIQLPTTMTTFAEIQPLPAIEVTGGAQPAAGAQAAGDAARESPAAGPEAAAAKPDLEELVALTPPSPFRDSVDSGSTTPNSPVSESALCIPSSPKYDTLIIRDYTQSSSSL
Chain of UniProt O43570 (whole entry, looked up): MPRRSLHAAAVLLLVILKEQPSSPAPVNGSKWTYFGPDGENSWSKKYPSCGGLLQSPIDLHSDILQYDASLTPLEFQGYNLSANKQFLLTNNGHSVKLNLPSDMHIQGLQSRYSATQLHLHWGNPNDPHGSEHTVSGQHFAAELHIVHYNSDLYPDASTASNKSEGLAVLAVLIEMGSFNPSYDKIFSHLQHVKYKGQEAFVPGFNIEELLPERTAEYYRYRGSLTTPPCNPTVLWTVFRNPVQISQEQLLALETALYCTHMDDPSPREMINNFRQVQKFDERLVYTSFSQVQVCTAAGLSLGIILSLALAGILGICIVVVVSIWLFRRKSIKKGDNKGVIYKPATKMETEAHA

For `CC[C@H](C)[C@@H]1NC(=O)[C@H](CC(C)C)NC(=O)CNC(=O)[C@H](CCCNC(=N)N)NC(=O)[C@H](Cc2c[nH]c3ccccc23)NC(=O)[C@H](CCSC)NC(=O)[C@H](CO)NC(=O)[C@H](CCC(=O)O)NC(=O)[C@H](Cc2ccccc2)NC(=O)[C@H](CC(=O)O)NC(=O)[C@H]([C@@H](C)O)NC(=O)CNC(=O)[C@H](CCC(=O)O)NC(=O)[C@H]([C@@H](C)O)NC(=O)CNC(=O)[C@H](CC(=O)O)NC1=O`, the AlphaLISA signal was 2260 a.u. and 2240 a.u. (MDM2 (Homo sapiens, UniProt Q00987); MDM2-ligand binding, inhibitor, AlphaLISA competition; 3.125 µM, together with: GST-tagged MDM2 ligand; lower = stronger inhibition).
`O=C1NC2(CC2)COc2ncc(F)cc2[C@H]2COCCN2c2ccn3ncc1c3n2` — result for “organ-to-body weight ratio”: 0.14 ± 0.023% (Sprague-Dawley rat, male, thymus; oral, 20 mg/kg/day, 4 weeks, end of treatment).
`CC(C)CC(O)(CC(C)C)c1cn(C(=O)N2CCCC2)nn1` — result for “SILAC activity ratio”: 1.19 and 1.04 and 1.12 and 1.17 and 1.25 and 1 and 1.3 and 1.4 (Platelet-activating factor acetylhydrolase IB subunit alpha1 (Pafah1b3, Mus musculus, UniProt Q61205); probe labelling, inhibitor, competitive ABPP-SILAC, item: Pafah1b3; mouse T cells; concentration not given, 4 h, single peptide; relative to: treated over DMSO cells, lower = stronger inhibition).
`CCOC(=O)[C@@H]1Cc2c(cc([N+](=O)[O-])cc2[N+](=O)[O-])[C@H](O)[C@]12C(=O)Nc1ccc(Br)cc12` gave a remaining binding of 59% (ULK1; KINOMEscan; 100 nM; relative to: DMSO control).
`CON(C(=O)c1cn(C)nc1C(F)F)C(C)Cc1c(Cl)cc(Cl)cc1Cl` (centres unmarked) gave a reaction velocity of 0.0172 µM/s and 0.0165 µM/s (SDHD/SDHC/SDHB (Sus scrofa, UniProt A5GZW8+D0VWV4+Q007T0); enzyme activity, inhibitor, DCIP reduction; pig; 0.3 µM, together with: DCIP 160 µM).
The selectivity ratio of `Cc1c(Cl)c(=O)oc2cc(OCCCCCC[Se]C#N)ccc12` is reported as > 1110 (CA12 (Homo sapiens, UniProt O43570); stopped-flow CO2 hydration; relative to: Ki CA II over Ki CA XII).
`CCOC(=O)[C@](CC)(CCCSCCOCCOCCNc1ccc([N+](=O)[O-])c2nonc12)NC(=O)c1ccc(C2CC2)c(Cc2ccc(F)cc2)n1` has an Emax of 95% (Cnr2 (Mus musculus, UniProt P47936); cAMP, agonist).
`OC1Cc2ccccc2CC1N1CCC2(C=Cc3ccc(Br)cc32)CC1` (racemic) gave a selectivity ratio of 0.32 (Vesicular acetylcholine transporter (Rattus norvegicus, UniProt Q62666); relative to: Ki sigma1 over Ki VAChT).
The -TΔS of `C=CC(=O)NC[C@H](NC(=O)[C@H](CC1CCCCC1)NC(=O)[C@H](CCC(N)=O)NC(C)=O)C(=O)N[C@@H](CC(C)C)C(=O)N[C@@H](Cc1ccccc1)C(=O)O` is reported as 3.3 kcal/mol (Beta sliding clamp (Escherichia coli, UniProt P0A988, H175G); isothermal titration calorimetry; 25 °C).
With `CN(C)[C@H]1C[C@@]23CC[C@@]4(O2)C(=CC[C@]2(C)[C@@H](c5ccc6ccncc6c5)CC[C@H]24)C=C3[C@@H](O)[C@@H]1O` the inhibition was -5.1% (PHKG2 (Homo sapiens, UniProt P15735); ATP probe labelling, inhibitor, KiNativ profiling; 1 µM).
The binding stoichiometry of `CC[C@H](C)[C@H](NC(=O)[C@H](CO)NC(=O)[C@H](CO)NC(=O)[C@H](CCC(=O)O)NC(=O)[C@H](CCC(=O)O)NC(=O)[C@H](CCCCN)NC(=O)[C@H](CO)NC(=O)[C@@H](NC(=O)[C@H](CO)NC(=O)[C@H](CC(C)C)NC(=O)[C@H](Cc1ccccc1)NC(=O)[C@H](CCCNC(=N)N)NC(=O)[C@H](C)NC(=O)[C@H](Cc1ccccc1)NC(=O)[C@H](Cc1ccccc1)NC(=O)[C@@H]1CCCN1C(=O)[C@H](CC(C)C)NC(=O)[C@H](C)NC(=O)[C@H](CCCCN)NC(=O)CNC(=O)[C@H](CCC(N)=O)NC(=O)[C@H](CCC(N)=O)NC(=O)[C@H](CC(=O)O)NC(=O)[C@H](CC(N)=O)NC(=O)[C@@H]1CCCN1C(=O)[C@H](Cc1ccc(O)cc1)NC(=O)[C@H](C)NC(=O)[C@@H](N)CCSC)C(C)C)C(=O)N[C@@H](CCCCN)C(=O)N[C@@H](CO)C(=O)N1CCC[C@H]1C(=O)N[C@@H](CO)C(=O)N1CCC[C@H]1C(=O)N[C@@H](CC(=O)O)C(=O)N[C@@H](Cc1c[nH]cn1)C(=O)N[C@@H](CCC(=O)O)C(=O)N[C@H](C(=O)N[C@@H](CO)C(=O)N[C@H](C(=O)N[C@@H](CCCNC(=N)N)C(=O)N[C@@H](CCCCN)C(=O)N[C@@H](Cc1ccc(O)cc1)C(=O)N1CCC[C@H]1C(=O)N[C@@H](CO)C(=O)N[C@@H](CC(=O)O)C(=O)N[C@@H](Cc1c[nH]c2ccccc12)C(=O)N[C@@H](CCC(=O)O)C(=O)N[C@@H](CCC(=O)O)C(=O)N[C@@H](Cc1c[nH]c2ccccc12)C(=O)O)[C@@H](C)O)[C@@H](C)CC` is reported as 0.84 ± 0.05 (uncharacterized protein (Microcystis aeruginosa MRC, UniProt B2G3D0, E294A/N296A); ITC; Microcystis aeruginosa; concentration not given, pH 8.0, 25 °C).
With `C#CCCCCOc1ccc2c(c1)CCCN2C(=O)CCl` the reactivity ratio was 1.33 (Endoplasmic reticulum-Golgi intermediate compartment protein 3 (ERGIC3, Homo sapiens, UniProt Q9Y282); mass spectrometry profiling, item: ERGIC3; H460 cell lysate; 100 µM over 10 µM, UniProt Q9Y282; relative to: high over low concentration).
The inhibition of `C[C@H](NCc1ccc(-c2ccc(C(F)(F)F)cc2)cc1)C(N)=O` is reported as 14% (GRM5 (Homo sapiens, UniProt P41594); radioligand binding; 1 µM, together with: 0.03 µM [3H]quisqualic acid).
With `CN(C)CCCSC(=S)N1CCN(C(=O)/C=C/c2coc3ccccc3c2=O)CC1` the MST response was 0.911 a.u. (Nucleoprotein (N, Tomato spotted wilt virus, UniProt P25999, R94A/Y184A); binding, microscale thermophoresis; 250 µM; dose series).
For `CC[C@H](C)[C@H](NC(=O)[C@H](CCCNC(=N)N)NC(=O)[C@H](CCCNC(=N)N)NC(=O)[C@H](CC(C)C)NC(=O)[C@H](Cc1ccccc1)NC(=O)CNC(=O)CNC(=O)[C@@H](N)Cc1ccc(O)cc1)C(=O)N[C@@H](CCCNC(=N)N)C(=O)N1CCC[C@H]1C(=O)N[C@@H](CCCCN)C(=O)N[C@@H](CC(C)C)C(=O)N[C@@H](CCCCN)C(=O)O`, the Emax was 7.44% and 7.25% (GPR139 (Homo sapiens, UniProt Q6DWJ6); G protein activation, agonist, BRET, item: Gα12; HEK-293T/17; 40 µM; relative to: GαoA response).
For `CC(C)NCCN1C(=O)CSC1c1ccc(F)cc1` (centres unmarked), IC50 read “inactive” (uncharacterized protein (Anopheles gambiae, UniProt Q7QFG0); Ellman; 1000 µM, together with: acetylthiocholine).
For `O=C1NC(=O)c2c1c1cc(F)c[n+]3c1c1c2c2cc(O)ccc2[n]1[Ru-4]312([N]=C=S)[S+]3CC[S+]1CC[S+]2CC3` (centres unmarked), the remaining activity was 43% (Insulin-like growth factor 1 receptor, activated (IGF1R, Homo sapiens, UniProt P08069); enzyme activity; 100 nM, human enzyme, together with: 10 µM ATP; relative to: untreated).
For `O=C(Cc1ccc(Br)cc1)N1CCN(CC(OCc2ccc3ccccc3c2)c2ccc(Cl)cc2Cl)CC1` (centres unmarked), “activity vs control” read 149% (ULK1; enzyme activity, inhibitor, ADP detection; 0.1 µM).
With `CS(C)(=O)=Nc1ccc(-c2ccc(-c3nc4cc(O[C@@H]5CO[C@H]6[C@@H]5OC[C@H]6O)[nH]c4cc3F)cc2)cc1` the inhibition was -26% (MET (Homo sapiens, UniProt P08581, Y1230H); enzyme activity, inhibitor; 10 µM).
`Cc1cc(-c2ccc3ccccc3c2)nnc1NCCN1CCN(C)CC1`: antagonist activity “negative” (EDNRA (Homo sapiens, UniProt P25101); antagonist; concentration not given).
`CCN(C)C(=O)Oc1ccc(/C=C/C(=O)N2CCc3ccccc3C2)cc1OC` has a selectivity ratio of 9.5 (Cholinesterase (BCHE, Equus caballus, UniProt P81908); Ellman; equine serum BuChE; relative to: AChE IC50 over BuChE IC50).
For `O=[N+]([O-])c1ccc2c(N=Nc3ccc4ccccc4c3O)c(O)cc(S(=O)(=O)O)c2c1`, the delta Tm was 37.4 °C (Bcl-2-related protein A1 (Mus musculus, UniProt Q07440, C113S/P104K); differential scanning fluorimetry; 100 µM).
`COCC1CCCCN1C(=O)n1cc(C(O)(c2ccccc2)c2ccccc2)nn1` (centres unmarked) — result for “SILAC activity ratio”: 0.14 (sn-1-specific diacylglycerol lipase ABHD11 (Mus musculus, UniProt Q8K4F5); probe labelling, inhibitor, competitive ABPP-SILAC; mouse T cells; concentration not given, 4 h, protein level; relative to: treated over DMSO cells, lower = stronger inhibition).
With `COc1ccccc1-c1n[nH]c2nc(N[C@H]3CC[C@H](NS(=O)(=O)CC(C)C)CC3)ncc12` the remaining binding was 51% (cdc2-related kinase 12 (Leishmania donovani, UniProt A0A3S7WQK2); competitor, bead pull-down competition; Leishmania donovani extract; 0.0032 µM; relative to: vehicle).
`N[C@H](C(=O)N1CCCC1)C1CCN(c2nccc3c(-c4ncc(Cl)cc4Cl)cccc23)CC1` gave a kcat of 1.66 s⁻¹ and 1.71 s⁻¹ (PADI2 (Homo sapiens, UniProt Q9Y2J8); enzyme activity; 0.006291 µM, high-affinity site, together with: Ca2+ 1.5 mM).
For `CC(C)[C@H]1NC(=O)C[C@H]2/C=C/CCSSC[C@@H](NC1=O)C(=O)N[C@H](Cc1cccc3ccccc13)C(=O)NCC(=O)O2`, the inhibition was 9.5% (Mitogen-activated protein kinase kinase kinase 7, with TAB1 (MAP3K7, Homo sapiens, UniProt O43318); 10 µM).

Repeated from above:
For `CC[C@H](C)[C@H](NC(=O)[C@H](CCCNC(=N)N)NC(=O)[C@H](CCCNC(=N)N)NC(=O)[C@H](CC(C)C)NC(=O)[C@H](Cc1ccccc1)NC(=O)CNC(=O)CNC(=O)[C@@H](N)Cc1ccc(O)cc1)C(=O)N[C@@H](CCCNC(=N)N)C(=O)N1CCC[C@H]1C(=O)N[C@@H](CCCCN)C(=O)N[C@@H](CC(C)C)C(=O)N[C@@H](CCCCN)C(=O)O`, the Emax was 7.44% and 7.25% (GPR139 (Homo sapiens, UniProt Q6DWJ6); G protein activation, agonist, BRET, item: Gα12; HEK-293T/17; 40 µM; relative to: GαoA response).
For `O=[N+]([O-])c1ccc2c(N=Nc3ccc4ccccc4c3O)c(O)cc(S(=O)(=O)O)c2c1`, the delta Tm was 37.4 °C (Bcl-2-related protein A1 (Mus musculus, UniProt Q07440, C113S/P104K); differential scanning fluorimetry; 100 µM).
The selectivity ratio of `Cc1c(Cl)c(=O)oc2cc(OCCCCCC[Se]C#N)ccc12` is reported as > 1110 (CA12 (Homo sapiens, UniProt O43570); stopped-flow CO2 hydration; relative to: Ki CA II over Ki CA XII).
